Measured values gathered from unrelated publications.
Protocols differ between the studies behind these lines. Several values in a cell are separate wells, animals, samples, runs or records. ± gives the spread as reported.

SMILES | target or system | assay | system | setting | scale | endpoint | result
[O-][S+]1CCc2nc(N3CCC(c4ncc(Cl)cn4)CC3)nc(NC3(CO)CCC3)c21 (stereo not drawn) |  |  | healthy male subjects | 36 mg single dose, 11.9 (unit not given), after last treatment |  | haemoglobin | 129 g/L
CN[C@@H](C)C(=O)N[C@H]1CN(S(=O)(=O)c2cccc(S(=O)(=O)N3CC[C@H]4CC[C@@H](C(=O)NC(c5ccccc5)c5ccccc5)N4C(=O)[C@@H](NC(=O)[C@H](C)NC)C3)c2)CC[C@H]2CC[C@@H](C(=O)NC(c3ccccc3)c3ccccc3)N2C1=O |  |  | patients with advanced solid tumours | 30 mg, phase I monotherapy |  | treatment-related pruritus incidence | 0%
COc1ccc(CC(=O)NC2CCN(Cc3ccc(-c4ccccc4OC)cc3)C2)cc1 (stereo not drawn) | Vero-E6 | CellTiter-Glo ATP |  | 72 h, first round 5-point | reference: DMSO 0%, hyamine -100%, more negative, more toxic | maximum response | -4.86%
CC[C@H](C)[C@H](NC(=O)[C@H](CC(C)C)NC(=O)[C@H](Cc1c[nH]c2ccccc12)NC(=O)[C@H](CCC(N)=O)NC(=O)[C@@H](NC(=O)[C@H](Cc1ccccc1)NC(=O)[C@H](C)NC(=O)[C@H](CCCCNC(=O)COCCOCCNC(=O)COCCOCCNC(=O)CC[C@H](NC(=O)CCCCCCCCCCCCCCCCCCC(=O)O)C(=O)O)NC(=O)[C@H](CCC(N)=O)NC(=O)[C@H](C)NC(=O)[C@@H](NC(=O)[C@H](CCCCN)NC(=O)[C@H](CC(=O)O)NC(=O)[C@H](CC(C)C)NC(=O)C(C)(C)NC(=O)[C@@H](NC(=O)[C@H](CO)NC(=O)[C@H](Cc1ccc(O)cc1)NC(=O)[C@H](CC(=O)O)NC(=O)[C@H](CO)NC(=O)[C@@H](NC(=O)[C@H](Cc1ccccc1)NC(=O)[C@@H](NC(=O)CNC(=O)[C@H](CCC(=O)O)NC(=O)C(C)(C)NC(=O)[C@@H](N)Cc1ccc(O)cc1)[C@@H](C)O)[C@@H](C)O)[C@@H](C)CC)[C@@H](C)CC)C(C)C)C(=O)N[C@@H](C)C(=O)NCC(=O)NCC(=O)N1CCC[C@H]1C(=O)N[C@@H](CO)C(=O)N[C@@H](CO)C(=O)NCC(=O)N[C@@H](C)C(=O)N1CCC[C@H]1C(=O)N1CCC[C@H]1C(=O)N1CCC[C@H]1C(=O)N[C@@H](CO)C(N)=O |  |  | human, plasma | subcutaneous, 2.5 mg first dose, week 1, 10 mg group, tau 168 h, geometric mean |  | AUC(0-tau) | 26100 ng·h/mL
C=CC(=O)Nc1cc(Nc2nccc(Nc3cc(Cl)c(F)cc3C(C)(C)O)n2)c(OC)cc1N1CC[C@@H](N(C)C)C1 |  |  | human patients | oral, 50 mg, treatment-emergent adverse events |  | patients with dizziness | 0%
CC1(C)[C@H](C=C(Cl)Cl)[C@H]1C(=O)OCc1cccc(Oc2ccccc2)c1 |  | item: CYP2C19 | human, age 5 years, recombinant human CYP2C19 | 0.1 µM |  | enzyme contribution to clearance | 0.33%
Cc1noc(C)c1Cn1cc(N2C(=O)CN(Cc3cccc(O)c3)C2=O)cn1 |  |  | CD-1 mouse, male, bone marrow | 1000 mg/kg/day, 24 h |  | micronucleated PCE | 0.8 per 2000 PCE
COc1ccc(-c2c(-c3ccc(C#N)c(F)c3)nc(N3CCC(N)CC3)n(C)c2=O)cc1F |  | item: ≥1 event | relapsed/refractory MZL patients | oral, 60 mg, dose expansion |  | any-grade TRAE incidence | 67%
CCS(=O)(=O)Nc1ccc(Oc2ccc(F)cc2F)c(-c2cn(C)c(=O)c3[nH]ccc23)c1 |  | septic shock leading to discontinuation | human, relapsed/refractory AML | oral, dose not given |  | treatment-emergent adverse events | 0%
COc1ccc(C[C@@H]2NC(=O)[C@H]([C@@H](C)O)NC(=O)[C@@H]3[C@@H]4CCN3C(=O)[C@@H]3Cc5cn(c6ccc(F)cc56)CCCCCCN(Cc5ccc(cc5)CCNC(=O)[C@]5(C)CCCN5C2=O)C(=O)CCC(=O)N[C@@H](C)C(=O)N[C@H](CNC(=O)CCCCC[N+](C)(C)C)C(=O)N[C@@H](Cc2cccc(c2)CNC(=O)CO4)C(=O)N3)cc1 |  | item: skin irritation | human | Study-003 safety |  | adverse events | 6.5%
CC(C)C[C@H](NC(=O)[C@H](CCCCN)NC(=O)OCC1c2ccccc2-c2ccccc21)C(=O)N[C@H](C(=O)N[C@@H](Cc1ccccc1)C(=O)N[C@@H](Cc1ccccc1)C(=O)N[C@@H](CCCCN)C(=O)NCC(=O)N[C@@H](Cc1ccccc1)C(=O)N[C@@H](C)C(=O)N[C@@H](Cc1c[nH]c2ccccc12)C(=O)N[C@@H](CC(N)=O)C(=O)N[C@H](C(=O)N[C@H]1CSSC[C@@H](C(=O)N[C@@H](Cc2c[nH]cn2)C(=O)N[C@@H](CCCNC(=N)N)C(=O)N[C@@H](CCCNC(=N)N)C(=O)N[C@@H](C)C(=O)N[C@@H](CC(N)=O)C(N)=O)NC(=O)[C@H](C(C)C)NC(=O)[C@H](CCCNC(=N)N)NC(=O)[C@H](C(C)C)NC(=O)CNC(=O)[C@H](CC(N)=O)NC(=O)[C@H](CCCNC(=N)N)NC(=O)[C@H](Cc2ccc(O)cc2)NC(=O)[C@H](C(C)C)NC1=O)C(C)C)C(C)C |  | HPLC | mouse liver homogenate | 2560 µM, 2.00 h, 50 mg/mL tissue |  | remaining peptide | 54.9% and 51.6% and 53.2%
O=c1cc(-c2ccc(O)c(O)c2)oc2cc(O)cc(O)c12 |  |  | male Sprague-Dawley rat, lean | oral, 100 mg/kg of neohesperidin, 0 to 12 h |  | faecal excreted amount | 50 ± 22.6 ng
C=CC(=O)N1CC[C@H](n2nc(C#Cc3cc(OC)cc(OC)c3)c3c(N)ncnc32)C1 |  |  | patients with advanced solid tumours | oral, dose not given, Diarrhea, any grade, QD, together with: lanthanum carbonate hydrate |  | adverse drug reaction incidence | 29.2%
CCc1ccc(CC/C=C/c2ccc3c(c2)C(=O)CC3)cc1 |  |  | Sprague-Dawley rat, female | oral, 30 mg/kg/day, 14 days |  | ALT serum activity | 39.7 U/L
CC(=O)c1c(C)c2cnc(Nc3ccc(C4CCN(CCS(C)(=O)=O)CC4)cn3)nc2n(C2CCCC2)c1=O |  |  | human patients, plasma | oral, 100 mg twice daily, day 21 multiple doses, together with: fulvestrant |  | Cmax | 260 ng/mL
O=C(Nc1ccccc1)C1CCN(C(=O)Oc2cccnc2)CC1 |  | Bond-Lader VAS | healthy women | 20 mg | reference: pre-dose baseline, direction not given | change in Calm-excited score | -13
CO[C@H]1C[C@@H]2CC[C@@H](C)[C@@](O)(O2)C(=O)C(=O)N2CCCC[C@H]2C(=O)O[C@H]([C@H](C)C[C@@H]2CC[C@@H](OC(=O)NCCOCCOCCOCCOCCOCCOCCOCCOCCC(=O)N3CCc4cc(Cn5nc(-c6ccc7oc(N)nc7c6)c6c(N)ncnc65)ccc4C3)[C@H](OC)C2)C[C@@H](O)[C@H](C)/C=C(\C)[C@@H](O)[C@@H](OC)C(=O)[C@H](C)C[C@H](C)/C=C/C=C/C=C/1C |  |  | patients with advanced solid tumours | intravenous, 1.6 mg/3 mg weekly, any grade |  | incidence of any TEAE | 100%
Cc1ccc2ccccc2c1 |  |  | pooled human liver microsomes | 0.25 µM, pH 7.4 |  | metabolism rate | 110 pmol/min/mg
COc1ccc2nc3cc(Cl)ccc3c(Nc3cc(CN4CCCC4)c(O)c(CN4CCCC4)c3)c2n1 |  |  | mouse, blood | intraperitoneal, 14 mg/kg |  | mean corpuscular haemoglobin concentration | 378 g/L
C[C@]1(CO)Cc2ncn(-c3ccc(C#N)c(Cl)c3)c2C(=O)O1 |  | investigator-assessed | human | 2 mg single dose |  | subjects with drug-related TEAEs | 16.7%

SMILES | target or system | assay | system | setting | scale | endpoint | result
CN1CC[C@@H](c2c(O)cc(O)c3c(=O)cc(-c4ccc(C(F)(F)F)cc4Cl)oc23)[C@@H]1CO |  | item: Pyrexia | relapsed or refractory haematological malignancies | oral, dose not given, all arms |  | patients with adverse event | 10%
O=S(=O)(Nc1ccccc1)c1ccc(NC(=S)Nc2ccccc2)cc1 |  |  | male mouse, blood | oral, 20 mg/kg daily, 14 days |  | haemoglobin | 146 g/L
O=[N+]([O-])c1ccc2c(c1)S(=O)(=O)C=C2 |  |  | male C57BL/6 mice, blood | intraperitoneal, 20 mg/kg, day 8, group average |  | mean corpuscular volume | 52 fL
COc1ncccc1-c1cnn2ccc(N3CCN(C(=O)OC(C)C)CC3)nc12 |  |  | rat, CCI cold allodynia model, plasma | oral, 30 mg/kg, 240 min |  | free drug concentration | 92 nM
CC(Nc1nc(N2CCN(C)CC2)nc2ccccc12)c1ccccc1 (stereo not drawn) | Vero-E6 | CellTiter-Glo ATP |  | concentration not given, 72 h, second round 5-point | reference: DMSO 0%, hyamine -100%, more negative, more toxic | cytotoxicity efficacy | 0%
O=c1nc(NO)ccn1[C@@H]1O[C@H](CO)[C@@H](O)[C@H]1O |  |  | rat fetus dialysate | 1000 ng/mL, 6 h, room temperature, high QC concentration, together with: molnupiravir |  | bench-top stability | 104 ± 3.07%
CNc1nc(N)ncc1-c1cn([C@@H]2O[C@H](CO)[C@@H](O)[C@@]2(C)F)cn1 |  |  | CD-1 mouse | 100 mg/kg single dose |  | time serum level quantifiable | > 2 h
COc1ccc2c(c[n+](C)c3c4cc5c(cc4ccc23)OCO5)c1OC |  |  | rat, plasma | dose not given, together with: ketoconazole | reference: with over without ketoconazole | AUC(0-inf) fold increase | 1.5
O=C1Nc2cc3[nH]nc(-c4ccncc4)c3cc2CN1Cc1ccccc1 |  | CTCAE v4.03 | advanced solid tumour patients | intravenous, 0.45 mg/kg, schedules 1/2 |  | patients with blurred vision | 0%
C[C@H](C(=O)N[C@H]1COc2ccccc2[C@@H]1S(C)(=O)=O)c1ccc(F)cc1 |  |  | Sprague-Dawley rat, male, brain | oral, 3 mg/kg, 1 h |  | free brain concentration over EC50 | 63 fold
O=C(O)CCCOc1ccc(F)cc1-c1cc(-c2ccccc2C(F)(F)F)n(-c2ccccc2)n1 |  | item: T-Cho | Crl:CD(SD) rats, female, blood | iv, 25 µg/kg, 14 days |  | blood chemistry | 56.4 ± 2.7 mg/dL
C[C@@H]1OC(=O)NN=C1c1ccc(-c2ccc(F)cc2)c(C(F)(F)F)c1 |  | phase I trial, item: AST increased worst grade 1 | human patients | 10 mg loading then 0.5 mg daily |  | patients with adverse event | 0%
O=[N+]([O-])NC1=NCCN1Cc1ccc(Cl)nc1 |  | ultrafiltration | cow milk whey | 2000 nM nominal in whole milk |  | final permeate concentration | 1690 nM
CCC[C@@](N)(CO)CCc1ccc(OCCCCCC(C)C)cc1 |  | ECG and echocardiography | hound dog, male | dose not given |  | QT interval, cardiac conduction | no effect
CCN1CC2(CCN(CCc3cc(F)ccc3F)CC2)O[C@H](C)C1=O |  |  | ferret, plasma | intraperitoneal, 0.5 mg/kg |  | tmax | 18 min
COc1cccc(Oc2ccccc2NC(=O)CNC(=O)c2cccc3ccccc23)c1 |  |  | esterase-deficient SCID mice, male | oral, 100 mg/kg/day, 14 days, toxicity study |  | serum chloride | 112 mmol/L and 111 mmol/L
CCN1[C@@H](C(=O)NC23CCC(C(=O)O)(CC2)CC3)[C@H](c2cccc(Cl)c2F)[C@]2(C(=O)Nc3cc(Cl)ccc32)C12CCCCC2 |  |  | patients with advanced solid tumours | oral, 100 mg |  | grade ≥3 Thrombocytopenia incidence | 18.2%
COc1cc2c(Oc3ccc4[nH]c(C)cc4c3F)ccnc2cc1OCC1(N)CC1 |  |  | paediatric recurrent refractory sarcoma | 12 mg |  | grade 1 or 2 intestinal obstruction | 0%
CC[C@H](C)[C@@H]1NC(=O)[C@H](CCCNC(=N)N)NC(=O)C[C@@H](c2cccc3ccccc23)NC(=O)[C@@H]2CSSC[C@H](NC(=O)C[C@@H](c3cccc4ccccc34)NC(=O)[C@H](CCCNC(=N)N)NC(=O)[C@@H]3CCCN3C(=O)[C@@H]3CCCN3C1=O)C(=O)N[C@@H](Cc1ccccc1)C(=O)N1CCC[C@H]1C(=O)N[C@@H](CC(=O)O)C(=O)N[C@@H](CC(=O)O)C(=O)N[C@@H](Cc1ccccc1)C(=O)N2 |  | solubility | simulated intestinal fluid | monitored for 1 h |  | precipitation onset time | 15 min

A few entries again:
SMILES | target or system | assay | system | setting | scale | endpoint | result
O=C(Nc1ccccc1)C1CCN(C(=O)Oc2cccnc2)CC1 |  | Bond-Lader VAS | healthy women | 20 mg | reference: pre-dose baseline, direction not given | change in Calm-excited score | -13
CC(C)C[C@H](NC(=O)[C@H](CCCCN)NC(=O)OCC1c2ccccc2-c2ccccc21)C(=O)N[C@H](C(=O)N[C@@H](Cc1ccccc1)C(=O)N[C@@H](Cc1ccccc1)C(=O)N[C@@H](CCCCN)C(=O)NCC(=O)N[C@@H](Cc1ccccc1)C(=O)N[C@@H](C)C(=O)N[C@@H](Cc1c[nH]c2ccccc12)C(=O)N[C@@H](CC(N)=O)C(=O)N[C@H](C(=O)N[C@H]1CSSC[C@@H](C(=O)N[C@@H](Cc2c[nH]cn2)C(=O)N[C@@H](CCCNC(=N)N)C(=O)N[C@@H](CCCNC(=N)N)C(=O)N[C@@H](C)C(=O)N[C@@H](CC(N)=O)C(N)=O)NC(=O)[C@H](C(C)C)NC(=O)[C@H](CCCNC(=N)N)NC(=O)[C@H](C(C)C)NC(=O)CNC(=O)[C@H](CC(N)=O)NC(=O)[C@H](CCCNC(=N)N)NC(=O)[C@H](Cc2ccc(O)cc2)NC(=O)[C@H](C(C)C)NC1=O)C(C)C)C(C)C |  | HPLC | mouse liver homogenate | 2560 µM, 2.00 h, 50 mg/mL tissue |  | remaining peptide | 54.9% and 51.6% and 53.2%
